Experimental data from different studies.
Parts stem from different laboratories: compare values within a part only. Substitutions count along the parent as printed.

Set 1
Target: Sal-like protein 4, full length isoform B (SALL4, Homo sapiens, UniProt Q9UJQ4-2, residues 1-616)
Technique: universal PBM
Form: double-stranded DNA, one strand shown
Matrix: in vitro
Concentration: not given
Setting: 8-mer, flanks averaged, mean of replicates
Reading: higher = stronger binding
Target sequence (chain): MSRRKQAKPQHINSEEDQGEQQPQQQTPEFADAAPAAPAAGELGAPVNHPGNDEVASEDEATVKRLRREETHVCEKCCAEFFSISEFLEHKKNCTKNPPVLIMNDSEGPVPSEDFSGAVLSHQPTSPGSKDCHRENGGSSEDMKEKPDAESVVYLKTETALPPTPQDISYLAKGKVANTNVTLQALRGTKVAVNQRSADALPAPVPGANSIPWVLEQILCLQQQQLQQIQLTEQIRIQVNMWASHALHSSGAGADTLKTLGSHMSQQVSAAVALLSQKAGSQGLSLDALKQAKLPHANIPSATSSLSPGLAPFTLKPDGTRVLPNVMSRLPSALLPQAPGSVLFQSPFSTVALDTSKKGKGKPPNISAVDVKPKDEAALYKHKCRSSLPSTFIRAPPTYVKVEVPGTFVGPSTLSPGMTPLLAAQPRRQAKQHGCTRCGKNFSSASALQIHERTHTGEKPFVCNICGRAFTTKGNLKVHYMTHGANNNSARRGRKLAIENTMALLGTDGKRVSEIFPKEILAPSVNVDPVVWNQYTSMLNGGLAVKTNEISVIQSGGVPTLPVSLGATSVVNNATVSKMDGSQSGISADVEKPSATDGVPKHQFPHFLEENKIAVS
Strand | E-score
CGTGATAC | 0.0101
ACTTACGC | 0.1
ACACCAAA | 0.22
GGCGAGCA | -0.304
TAAGCGAA | -0.0122
AAGGTTTG | 0.0325
AATGAGAA | 0.0358
AAGAGGGG | -0.104

Set 2
Target: RNA binding protein fox-1 homolog 2, RRM domain, GST-SBP tag (RBFOX2, Homo sapiens, UniProt O43251-10, residues 100-194)
Technique: RNA Bind-n-Seq
Form: RNA
Matrix: in vitro
Concentration: 365 nM
Setting: natural RNA segment, single round, ends assumed
Baseline: no-protein control
Reading: higher = stronger binding
Shared flanks, not repeated: GGGAGUUCUACAGUCCGACGAUC … UGGAAUUCUCGGGUGCCAA
Construct (chain): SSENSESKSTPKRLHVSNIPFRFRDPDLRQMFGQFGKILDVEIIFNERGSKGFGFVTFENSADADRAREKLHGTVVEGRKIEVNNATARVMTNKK
Strand | RBNS enrichment (R)
UUUUCUACACAUUUUGCCAGGUCAGGCAUUUUGCUAGUAAGCAGGAUGCCCCCAACUCUCCCUGCCAUGGAGGAUUCUUUUUUUUAAGCUUUGGGUGCUUUUUUAAUACU | 0.627
UUAAGAUAUUUUCUAAUGAUUUUAAUUUUAGAGAGUACCUUUUCAUUCUGUGUGUUACAGAGAAGUACUGAAAAGUUAAGGACACUUGGGGGCUACUUUUUUCCCUCUAA | 0.354
ACAGGGGUCCCACAUUCUUGUGUAGUUUGCACAGGUACAUGUGCAGUUUCCUGAAGGAUGGAGGGAAUCUUUGUAAACAGAGAUCCACUUGCCAGGAUAAAAAUGUGGCC | 0.257
AGGAAAAGAUUAAAAUAGUAAAAUAAAAGUAUUUAAACUUUCCUGAUAUUUAUGUACAUAUUAAGAUAAAUGUCAUGUGUAAGAUAACUGAUAAAUAUUGGAACUUUGCU | 0.516
GCUGCUGGCACAGCAGUUCUGGCCCUGGACUCUGCCCCGGGGGAUGUGGCCGGCACUGGGCAGCCCCUUGGACUGAGGCAGUUUUGGUGGAUGGGGGACCUCCACUGGUG | 0.472
UGGUUAUCUGUGAAAGUUGCACAGCGUGGCUUUUCCUAAACUGGUGUUUUUCCCCCGCAUUUGGUGGAUUUUUUAUUAUUAUUCAAAAACAUAACUGAGUUUUUUAAAAG | 0.658
UGUUGACUGGAUUUUGCAAAAGGAUGUAUAAUAUUUCUGUCUGCUCAGAAUAUUAAUUUGUAAAUUCUGCAAGUUUAAUUUUUAUGUAGAUGGUAUAACAUUUGAAAAUA | 1.78
CCAGUGCAAGCGCCAGGUGAUCUGUGUCUGAGGAUACGAUUUUGAACCUUAUGAGCAGUGUACAAAUAUCAUGAGACAACUGAUCAGCACUUGCACCUGAUCAAGAGCAG | 0.387

Other studies, line by line
P1: viral docking peptide; TSVRRALFTGGSD; partner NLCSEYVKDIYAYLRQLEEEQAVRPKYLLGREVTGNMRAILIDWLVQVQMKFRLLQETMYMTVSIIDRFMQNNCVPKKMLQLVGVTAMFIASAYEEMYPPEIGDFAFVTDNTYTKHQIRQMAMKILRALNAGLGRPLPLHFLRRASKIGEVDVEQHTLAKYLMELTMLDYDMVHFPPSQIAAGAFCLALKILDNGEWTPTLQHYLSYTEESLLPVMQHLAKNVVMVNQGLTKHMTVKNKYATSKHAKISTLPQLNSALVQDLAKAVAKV
Molecule | target or system | test | test system | conditions | scale | measurement | value
Histone H2A type 1-B/E (Homo sapiens, UniProt P04908) | H2BC21 (Homo sapiens, UniProt Q16778) | cross-linking MS | – | hits only | – | interaction screen | cross-linked
P1 L7G | CCNB1, cyclin fold, Cln2 fusion (human) | yeast growth competition, sequencing | yeast | strong parent motif | baseline: not given, higher = stronger binding | normalised enrichment score | -0.167
ERLIN1 (Homo sapiens, UniProt O75477) | ERLIN2 (Homo sapiens, UniProt O94905) | cross-linking MS | – | hits only | – | interaction screen | cross-linked
PHB2 (Homo sapiens, UniProt Q99623) | OCIAD1 (Homo sapiens, UniProt Q9NX40) | cross-linking MS | cell fractions | together with: DMTMM | – | cross-linked residues | K89 to E245

Repeated from above (set 1):
Strand | E-score
ACTTACGC | 0.1
ACACCAAA | 0.22
GGCGAGCA | -0.304
